Assay results from different studies.
Each line is one published result; not all experiments were run side by side. ± marks the error that the study gave.
Oprm1: Mu-type opioid receptor (Oprm1, Rattus norvegicus, UniProt P33535)
UniProt P33535, sequence (whole entry, looked up): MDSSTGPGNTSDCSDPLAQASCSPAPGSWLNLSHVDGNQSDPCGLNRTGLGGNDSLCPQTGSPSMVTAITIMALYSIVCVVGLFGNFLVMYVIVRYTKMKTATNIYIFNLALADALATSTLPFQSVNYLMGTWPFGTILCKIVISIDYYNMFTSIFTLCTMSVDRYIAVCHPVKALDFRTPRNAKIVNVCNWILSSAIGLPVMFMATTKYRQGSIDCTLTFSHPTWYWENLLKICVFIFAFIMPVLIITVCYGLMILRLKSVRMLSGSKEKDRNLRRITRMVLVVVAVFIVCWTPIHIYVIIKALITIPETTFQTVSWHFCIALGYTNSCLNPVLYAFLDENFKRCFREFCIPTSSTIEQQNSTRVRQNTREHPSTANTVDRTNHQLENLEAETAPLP
UniProt P29371, sequence (whole entry, looked up): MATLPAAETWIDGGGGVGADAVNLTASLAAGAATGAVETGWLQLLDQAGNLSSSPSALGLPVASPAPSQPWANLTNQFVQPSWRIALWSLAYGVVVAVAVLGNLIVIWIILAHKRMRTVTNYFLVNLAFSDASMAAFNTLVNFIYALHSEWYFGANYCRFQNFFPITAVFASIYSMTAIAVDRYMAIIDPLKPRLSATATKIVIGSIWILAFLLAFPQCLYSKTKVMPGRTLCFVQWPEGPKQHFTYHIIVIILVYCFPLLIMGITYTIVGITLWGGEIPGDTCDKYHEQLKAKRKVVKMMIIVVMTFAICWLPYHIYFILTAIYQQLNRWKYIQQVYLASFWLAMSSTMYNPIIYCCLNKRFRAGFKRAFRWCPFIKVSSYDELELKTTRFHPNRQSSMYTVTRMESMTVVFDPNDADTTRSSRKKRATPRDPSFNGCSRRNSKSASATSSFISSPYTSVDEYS
UniProt P21802, sequence (whole entry, looked up): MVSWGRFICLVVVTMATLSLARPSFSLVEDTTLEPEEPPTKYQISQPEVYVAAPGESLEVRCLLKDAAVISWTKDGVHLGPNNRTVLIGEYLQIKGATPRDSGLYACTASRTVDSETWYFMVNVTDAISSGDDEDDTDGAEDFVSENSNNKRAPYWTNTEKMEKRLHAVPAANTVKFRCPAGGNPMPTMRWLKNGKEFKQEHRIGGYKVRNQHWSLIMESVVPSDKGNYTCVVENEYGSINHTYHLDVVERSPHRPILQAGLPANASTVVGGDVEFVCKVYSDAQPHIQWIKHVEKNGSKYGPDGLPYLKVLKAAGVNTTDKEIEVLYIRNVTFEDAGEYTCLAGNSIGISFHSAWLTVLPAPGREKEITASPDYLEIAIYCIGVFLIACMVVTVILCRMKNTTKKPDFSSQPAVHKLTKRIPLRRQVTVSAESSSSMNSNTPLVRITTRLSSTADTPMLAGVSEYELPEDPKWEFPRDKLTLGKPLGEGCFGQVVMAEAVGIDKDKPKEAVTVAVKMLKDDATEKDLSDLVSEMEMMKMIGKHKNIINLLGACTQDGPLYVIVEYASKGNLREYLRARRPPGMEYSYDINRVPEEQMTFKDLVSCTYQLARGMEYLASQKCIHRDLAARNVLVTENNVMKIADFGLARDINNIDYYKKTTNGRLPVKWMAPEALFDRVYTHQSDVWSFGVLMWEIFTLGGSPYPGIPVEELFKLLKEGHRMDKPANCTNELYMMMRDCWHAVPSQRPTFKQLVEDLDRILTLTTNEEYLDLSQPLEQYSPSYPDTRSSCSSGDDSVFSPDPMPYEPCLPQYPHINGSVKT
UniProt Q12851, sequence (whole entry, looked up): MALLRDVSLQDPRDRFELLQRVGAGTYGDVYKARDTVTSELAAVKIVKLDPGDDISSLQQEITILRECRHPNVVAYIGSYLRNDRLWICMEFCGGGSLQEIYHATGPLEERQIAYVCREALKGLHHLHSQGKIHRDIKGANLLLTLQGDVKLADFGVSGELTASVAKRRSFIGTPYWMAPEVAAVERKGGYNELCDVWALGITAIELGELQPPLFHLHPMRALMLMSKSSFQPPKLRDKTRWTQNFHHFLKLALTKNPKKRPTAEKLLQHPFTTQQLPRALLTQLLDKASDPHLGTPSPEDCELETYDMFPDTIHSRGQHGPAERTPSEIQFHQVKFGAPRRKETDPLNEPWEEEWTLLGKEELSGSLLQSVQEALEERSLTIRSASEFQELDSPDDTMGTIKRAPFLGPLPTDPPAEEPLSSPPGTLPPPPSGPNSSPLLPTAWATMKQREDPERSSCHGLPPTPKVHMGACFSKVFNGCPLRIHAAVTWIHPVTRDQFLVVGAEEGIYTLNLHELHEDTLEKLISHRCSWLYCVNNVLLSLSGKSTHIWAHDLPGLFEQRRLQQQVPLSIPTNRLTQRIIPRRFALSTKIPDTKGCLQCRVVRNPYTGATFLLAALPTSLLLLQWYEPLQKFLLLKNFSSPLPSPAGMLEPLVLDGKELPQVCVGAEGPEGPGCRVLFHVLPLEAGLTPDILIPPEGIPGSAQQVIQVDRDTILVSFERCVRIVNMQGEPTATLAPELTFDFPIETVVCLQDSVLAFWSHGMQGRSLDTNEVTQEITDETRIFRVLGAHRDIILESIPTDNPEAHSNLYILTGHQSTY
UniProt P41595, sequence (whole entry, looked up): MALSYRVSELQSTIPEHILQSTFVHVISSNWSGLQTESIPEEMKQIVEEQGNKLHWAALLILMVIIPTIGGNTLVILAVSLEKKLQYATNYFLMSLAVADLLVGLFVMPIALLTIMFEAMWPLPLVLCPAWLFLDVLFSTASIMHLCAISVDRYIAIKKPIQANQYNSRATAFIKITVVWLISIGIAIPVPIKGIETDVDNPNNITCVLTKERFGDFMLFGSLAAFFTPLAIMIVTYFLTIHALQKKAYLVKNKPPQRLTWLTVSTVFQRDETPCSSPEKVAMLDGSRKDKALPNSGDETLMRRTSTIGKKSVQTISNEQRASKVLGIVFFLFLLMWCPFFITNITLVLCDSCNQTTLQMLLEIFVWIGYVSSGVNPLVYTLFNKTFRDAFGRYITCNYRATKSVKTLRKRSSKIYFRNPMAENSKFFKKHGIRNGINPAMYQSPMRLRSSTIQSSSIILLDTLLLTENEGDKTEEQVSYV
UniProt Q9NRM7, sequence (whole entry, looked up): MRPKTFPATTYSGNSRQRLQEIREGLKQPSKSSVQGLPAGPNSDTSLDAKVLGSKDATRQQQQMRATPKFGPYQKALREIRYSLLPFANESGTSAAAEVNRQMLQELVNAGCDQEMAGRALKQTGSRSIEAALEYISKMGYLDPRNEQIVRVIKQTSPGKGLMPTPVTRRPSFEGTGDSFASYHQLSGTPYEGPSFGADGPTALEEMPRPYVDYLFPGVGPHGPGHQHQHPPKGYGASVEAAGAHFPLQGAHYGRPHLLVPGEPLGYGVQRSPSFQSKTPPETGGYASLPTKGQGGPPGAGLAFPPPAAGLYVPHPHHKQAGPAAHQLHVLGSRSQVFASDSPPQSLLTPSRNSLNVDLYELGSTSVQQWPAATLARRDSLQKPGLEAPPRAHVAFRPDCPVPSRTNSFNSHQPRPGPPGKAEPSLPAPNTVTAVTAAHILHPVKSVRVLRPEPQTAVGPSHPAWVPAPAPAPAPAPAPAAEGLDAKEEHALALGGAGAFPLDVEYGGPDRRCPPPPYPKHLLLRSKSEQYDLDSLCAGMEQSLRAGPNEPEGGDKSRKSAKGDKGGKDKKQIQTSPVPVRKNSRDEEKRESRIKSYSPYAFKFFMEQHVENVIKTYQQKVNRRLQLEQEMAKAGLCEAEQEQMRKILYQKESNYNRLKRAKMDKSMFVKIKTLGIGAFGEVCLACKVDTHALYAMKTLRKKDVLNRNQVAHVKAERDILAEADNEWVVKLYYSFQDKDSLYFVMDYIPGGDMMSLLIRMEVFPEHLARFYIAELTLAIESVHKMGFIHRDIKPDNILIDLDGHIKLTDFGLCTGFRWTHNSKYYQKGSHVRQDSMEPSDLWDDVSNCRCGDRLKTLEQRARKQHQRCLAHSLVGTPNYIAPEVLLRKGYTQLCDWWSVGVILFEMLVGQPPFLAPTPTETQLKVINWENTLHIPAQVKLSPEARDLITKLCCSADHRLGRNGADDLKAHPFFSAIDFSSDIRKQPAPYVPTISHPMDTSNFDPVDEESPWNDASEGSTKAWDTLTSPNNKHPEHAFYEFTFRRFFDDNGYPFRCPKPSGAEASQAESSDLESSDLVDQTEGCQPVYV

| SMILES | target or system | test | test system | setting | how to read | endpoint | result |
| --- | --- | --- | --- | --- | --- | --- | --- |
| O=C(N[C@@H]1c2ccccc2C[C@H]1N1CCCC1)c1ccc(-c2ccnc3[nH]ccc23)nc1 | Serine/threonine-protein kinase LATS2 (LATS2, Homo sapiens, UniProt Q9NRM7) | binding, competition with immobilised ligand |  | 3 µM |  | remaining binding | 0% |
| CS(C)(=O)=Nc1ccc(-c2ccc(-c3nc4cc(O[C@@H]5CO[C@H]6[C@@H]5OC[C@H]6O)[nH]c4cc3F)cc2)cc1 | Neuromedin-K receptor (TACR3, Homo sapiens, UniProt P29371) | calcium signal, antagonist |  | 10 µM |  | inhibition | 69% |
| CC(C)(C)C(=O)OCOP(=O)(OCOC(=O)C(C)(C)C)C1CCCN(O)C1=O (stereo not shown) | HOP-92 |  |  |  |  | log GI50 | -6.16 log M |
| OC[C@H]1CNCCN1C[C@@H]1CCCN1C[C@H](CC1CCCCC1)N1CCN(CCCC2CCCC2)[C@H](Cc2ccc(O)cc2)C1 | Oprm1 | radioligand binding | rat brain membranes | 500 nM, pH 7.5, 25 °C, together with: 0.87 nM [3H]DAMGO |  | remaining binding | 108 ± 8.06% |
| CCc1nnc(-c2c(OC)cc(-c3cnc4cc(-c5cnn(C)c5)ccn34)cc2OC)o1 | 5-hydroxytryptamine receptor 2B (HTR2B, Homo sapiens, UniProt P41595) | agonist radioligand, radioligand binding |  | 10 µM, SafetyScreen44 5-HT2B replicate 2 | lower = stronger displacement | remaining binding | 92.2% |
| CCOC(=O)[C@@H]1Cc2c(cc([N+](=O)[O-])cc2[N+](=O)[O-])[C@H](O)[C@]12C(=O)Nc1ccc(Br)cc12 | Fibroblast growth factor receptor 2 (FGFR2, Homo sapiens, UniProt P21802) | binding, competition with immobilised ligand |  | 0.1 µM |  | remaining binding | 51% |
| O=C1NC2(CC2)COc2ncc(F)cc2[C@H]2COCCN2c2ccn3ncc1c3n2 |  |  | Sprague-Dawley rat, male, serum | oral, 5 mg/kg/day, 4 weeks daily, end of treatment |  | pancreatic amylase activity | 2090 ± 418 U/L |
| CCCC[C@H]1CNCCN1C[C@@H]1CCCN1C[C@@H](Cc1ccc2ccccc2c1)N1CCN(CCc2ccc(Cl)c(Cl)c2)[C@H](Cc2ccc(O)cc2)C1 | Oprm1 | radioligand binding | rat brain membranes | 500 nM, pH 7.5, 25 °C, together with: 0.87 nM [3H]DAMGO |  | remaining binding | 97.2 ± 3.2% |
| COc1cc(Nc2nc(C)cc(-c3cnn4nc(OC)ccc34)n2)cc(C(F)(F)F)c1 | Calcium-dependent protein kinase 1 (CDPK1, Plasmodium falciparum, UniProt P62344) | KINOMEscan binding |  | 1000 nM | reference: control | remaining binding | 74% |
| COc1ccccc1-c1n[nH]c2nc(N[C@H]3CC[C@H](NS(=O)(=O)CC(C)C)CC3)ncc12 | cdc2-related kinase 12 (Leishmania donovani, UniProt A0A3S7WQK2) | competitor, bead pull-down competition | Leishmania donovani extract | 0.4 µM | reference: vehicle | remaining binding | 13% |
| CCCCC1CNCCN1CC1CCCN1CC(CC1CCCCC1)N1CCN(CCCC2CCCC2)C(Cc2ccc(O)cc2)C1 (stereo not shown) | Oprm1 | radioligand binding | rat brain membranes | 500 nM, pH 7.5, 25 °C, together with: 0.87 nM [3H]DAMGO |  | remaining binding | 95.2 ± 7.33% |
| COc1ccccc1-c1n[nH]c2nc(NC3CCN(C(=O)Cc4ccc(F)cc4F)CC3)ncc12 | cyclin 9 (Leishmania donovani, UniProt A0A2D1QVA3) | competition bead pull-down, refers to: LINJ.32.0800 | Leishmania donovani extract | 10 µM | reference: vehicle | remaining binding | 9% |
| O=C1NC(=O)c2c1c1cc(F)c[n+]3c1c1c2c2cc(O)ccc2[n]1[Ru-4]312([N]=C=S)[S+]3CC[S+]1CC[S+]2CC3 (stereo not shown) | Mitogen-activated protein kinase kinase kinase kinase 2 (MAP4K2, Homo sapiens, UniProt Q12851) | enzyme activity |  | 100 nM, human enzyme, together with: 10 µM ATP | reference: untreated | remaining activity | 108% |

Excerpt of the above:
| SMILES | target or system | test | test system | setting | how to read | endpoint | result |
| --- | --- | --- | --- | --- | --- | --- | --- |
| CCCCC1CNCCN1CC1CCCN1CC(CC1CCCCC1)N1CCN(CCCC2CCCC2)C(Cc2ccc(O)cc2)C1 (stereo not shown) | Oprm1 | radioligand binding | rat brain membranes | 500 nM, pH 7.5, 25 °C, together with: 0.87 nM [3H]DAMGO |  | remaining binding | 95.2 ± 7.33% |
| O=C(N[C@@H]1c2ccccc2C[C@H]1N1CCCC1)c1ccc(-c2ccnc3[nH]ccc23)nc1 | Serine/threonine-protein kinase LATS2 (LATS2, Homo sapiens, UniProt Q9NRM7) | binding, competition with immobilised ligand |  | 3 µM |  | remaining binding | 0% |
